Assay results from different studies.
A part holds a random share of what one study measured.

Series 1
Target: Max-binding protein MNT, bHLH-zipper, MAX partner unstated (MNT, Homo sapiens, UniProt Q99583, residues 220-300)
Method: protein-binding microarray
Molecule type: double-stranded DNA, one strand shown
Sample: in vitro
Concentration: not given
Setting: k-mer, scored over probes, only values ≥0.25
Reading: higher = stronger binding
Residues (chain): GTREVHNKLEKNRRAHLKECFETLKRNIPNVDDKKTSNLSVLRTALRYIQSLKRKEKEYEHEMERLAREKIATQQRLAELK
Sequence | E-score
CTCCACGC | 0.392
ATGGGGAA | 0.264
AACATGGG | 0.289
GCATATGC | 0.322

Series 2
Target: Sal-like protein 4, full length isoform A (SALL4, Homo sapiens, UniProt Q9UJQ4, residues 1-1053)
Chain of UniProt Q9UJQ4 (whole entry, looked up): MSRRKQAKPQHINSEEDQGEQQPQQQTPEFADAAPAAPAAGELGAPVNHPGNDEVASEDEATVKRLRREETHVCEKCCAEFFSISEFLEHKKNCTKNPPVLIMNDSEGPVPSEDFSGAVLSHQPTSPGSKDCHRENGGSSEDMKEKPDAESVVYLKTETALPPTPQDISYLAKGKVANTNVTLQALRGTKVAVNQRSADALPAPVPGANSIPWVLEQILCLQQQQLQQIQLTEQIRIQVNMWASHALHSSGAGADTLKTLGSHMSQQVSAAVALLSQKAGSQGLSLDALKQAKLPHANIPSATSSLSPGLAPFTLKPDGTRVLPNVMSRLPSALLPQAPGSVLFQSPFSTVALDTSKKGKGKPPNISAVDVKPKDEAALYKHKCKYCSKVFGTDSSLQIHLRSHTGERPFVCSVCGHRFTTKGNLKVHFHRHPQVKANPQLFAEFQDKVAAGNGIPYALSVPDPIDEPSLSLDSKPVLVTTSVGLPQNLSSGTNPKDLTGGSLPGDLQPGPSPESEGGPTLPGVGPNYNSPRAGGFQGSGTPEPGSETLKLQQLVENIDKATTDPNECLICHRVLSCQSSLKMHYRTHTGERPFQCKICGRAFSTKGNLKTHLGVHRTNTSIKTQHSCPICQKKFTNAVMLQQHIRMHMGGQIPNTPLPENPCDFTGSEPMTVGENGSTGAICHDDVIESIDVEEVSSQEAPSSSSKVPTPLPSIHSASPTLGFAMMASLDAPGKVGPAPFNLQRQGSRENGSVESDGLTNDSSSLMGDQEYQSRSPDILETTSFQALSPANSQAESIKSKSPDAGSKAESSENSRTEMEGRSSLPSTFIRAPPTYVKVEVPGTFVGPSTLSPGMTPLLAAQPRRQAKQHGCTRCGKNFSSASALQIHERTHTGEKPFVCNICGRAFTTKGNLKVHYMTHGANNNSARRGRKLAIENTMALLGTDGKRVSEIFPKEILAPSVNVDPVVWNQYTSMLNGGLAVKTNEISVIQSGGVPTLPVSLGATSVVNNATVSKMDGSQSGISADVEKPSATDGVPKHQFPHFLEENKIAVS
Method: universal PBM
Molecule type: double-stranded DNA, one strand shown
Sample: in vitro
Concentration: 600 nM
Setting: 8-mer, flanks averaged, mean of replicates
Reading: higher = stronger binding
Sequence | E-score
GTAGGACA | 0.0595
ATCTTTTC | 0.147
AATCGCCA | -0.039
CAGCCCTC | -0.264
CCGGGATA | -0.148
CACGCGCC | -0.274
CACACCTG | -0.0952

Series 3
Target: Histone acetyltransferase KAT6A, both winged helices, GST fusion (KAT6A, Homo sapiens, UniProt Q92794, residues 1-181)
Method: protein binding microarray
Molecule type: double-stranded DNA, one strand shown
Sample: in vitro
Concentration: not given
Setting: 8-mer, flanks averaged, mean of 2 arrays, mostly near background
Relative to: not given
Reading: higher = stronger binding
Target sequence (chain): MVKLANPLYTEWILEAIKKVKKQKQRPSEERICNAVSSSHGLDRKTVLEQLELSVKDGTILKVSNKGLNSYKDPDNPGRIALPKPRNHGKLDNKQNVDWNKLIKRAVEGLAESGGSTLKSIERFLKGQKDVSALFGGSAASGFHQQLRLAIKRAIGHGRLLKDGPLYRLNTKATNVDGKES
Sequence | E-score
ATACGCCG | 0.31
AGCGGCGC | 0.317
ACCTAGCA | -0.176
GTCACTTA | -0.0521
GGCGGAAC | 0.216
GAAATCGC | 0.0165
ATGTTGAG | 0.111

Mixed results
Substance | target | assay | test system | setting | scale | quantity | value
PhoQ, residues 284 288 289 292 302 303 SNGLAW | PhoP, residues 12 14 15 18 19 LHHVQ (Escherichia coli, UniProt P23836) | Sort-seq, measured: YFP reporter | E. coli | PhoQ-PhoP variant library, with: 10 µM Mg2+ | relative to: high Mg2+ state, higher = stronger signaling | fold induction | 7.84

Excerpt of the above (series 3):
Sequence | E-score
GTCACTTA | -0.0521
GGCGGAAC | 0.216
GAAATCGC | 0.0165
